# Experimental data from different studies.
# Lines come from different studies, so protocols differ.
# Organism: Staphylococcus aureus
SMILES,test,system,setting,MIC
CCCS[C@H]1[C@H](O)[C@@H](N)[C@@H](O[C@H]2[C@H](O[C@@H]3O[C@H](CO)[C@@H](O[C@H]4O[C@@H](CN)[C@@H](O)[C@H](O)[C@H]4N)[C@H]3O)[C@@H](O)[C@H](N)C[C@@H]2N)O[C@@H]1CO,,methicillin-resistant,,1 to 2 µg/mL
c1ccc(CN2CCOCCOCCN(CCCCCCCCCCN3CCOCCOCCN(CCCCCCCCCCN4CCOCCOCCN(Cc5ccccc5)CCOCCOCC4)CCOCCOCC3)CCOCCOCC2)cc1,microbial growth,MRSA USA100,drug-resistant strain,6 µM
CN(C)c1cc(CNCC2CCCCC2)c(O)c2c1C[C@H]1C[C@H]3[C@H](N(C)C)C(O)=C(C(N)=O)C(=O)[C@@]3(O)C(O)=C1C2=O,"microbial growth, broth dilution",,,1 µg/mL
COc1cc(NC(=O)CSc2nc3ccccc3c(=O)n2-c2ccc(S(N)(=O)=O)cc2)cc(OC)c1OC,,methicillin-resistant,"24 h, 37 °C",31.2 µg/mL
CN(C)c1cc(CNCc2ccccc2)c(O)c2c1C[C@H]1C[C@H]3[C@H](N(C)C)C(O)=C(C(N)=O)C(=O)[C@@]3(O)C(O)=C1C2=O,"microbial growth, broth dilution",,,0.25 µg/mL
Oc1c(Br)cc(Br)c2nc3cc(Cc4ccccc4)ccc3nc12,broth microdilution,MRSA 44,,0.2 µM
CCCCCCCCCc1nc2ccc(Cl)cc2c(=O)n1N,broth microdilution,RN6390B,,> 100 µM
C=CCOC(=O)[C@]12CS[C@H](c3ccccc3)N1C(=O)/C(=C(\O)C1CCCCC1)C2=O,broth dilution,MRSA,"with: Fe3+, Ca2+, Mg2+, Zn2+ at blood levels",7.81 µg/mL
CCC1(C)CCN(Cc2cc(N(C)C)c3c(c2O)C(=O)C2=C(O)[C@]4(O)C(=O)C(C(N)=O)=C(O)[C@@H](N(C)C)[C@@H]4C[C@@H]2C3)CC1,microbial growth,MRSA,,1 µg/mL
CNC(CC(C)C)C(=O)NC1C(=O)NC(CC(N)=O)C(=O)NC2C(=O)NC3C(=O)NC(C(=O)NC(C(=O)O)c4cc(O)cc(O)c4-c4cc3ccc4O)C(O)c3ccc(c(Cl)c3)Oc3cc2cc(c3OC2OC(CO)C(O)C(O)C2OC2CC(C)(NC(=O)CCCCCCCC[N+](C)(C)C)C(O)C(C)O2)Oc2ccc(cc2Cl)C1O (stereo not drawn),agar dilution,MRSA clinical isolate MRSA4,,64 µg/mL
C=CCO[C@H]1[C@H](O)[C@@H](N)[C@@H](O[C@H]2[C@H](O[C@@H]3O[C@H](CO)[C@@H](O[C@H]4O[C@@H](CN)[C@@H](O)[C@H](O)[C@H]4N)[C@H]3O)[C@@H](O)[C@H](N)C[C@@H]2N)O[C@@H]1CO,broth microdilution,MRSA isolate AG 042,,16 µg/mL
CC(C)C[C@@H]1NC(=O)[C@@H](CC(C)C)NC(=O)[C@H](CCN)NC(=O)[C@@H](NC(=O)[C@H](CCN)NC(=O)[C@@H](N)[C@@H](C)O)CCNC(=O)[C@H]([C@@H](C)O)NC(=O)[C@H](CCN)NC(=O)[C@H](CCN)NC1=O,broth microdilution,"MRSA USA300, CAMHB with polysorbate-80",16 h,> 64 µg/mL
C=CCOC(=O)c1ccc(NC(=O)c2ccc(NC(=O)c3ccc(NC(=O)C(CC(N)=O)NC(=O)c4ccc(NC(=O)c5ccc([N+](=O)[O-])cc5)cc4)cc3)c(OC(C)C)c2OCC=C)cc1 (stereo not drawn),microbial growth,ATCC29213,,> 64 µg/mL
CC(C)C[C@H](NC(=O)[C@H](CC(N)=O)NC(=O)[C@H](CCCNC(=N)N)NC(=O)[C@@H](CC(C)C)NC(=O)[C@H](Cc1ccc2ccccc2c1)NC(=O)[C@H](CC(=O)O)NC(=O)[C@H](CCCCN)NC(=O)[C@@H](CC(C)C)NC(=O)[C@H](CCCNC(=N)N)NC(=O)[C@H](CCC(N)=O)NC(=O)[C@@H](NC(=O)[C@@H](CC(C)C)NC(=O)[C@H](CCCNC(=N)N)NC(=O)[C@H](CCCCN)NC(=O)[C@H](Cc1ccc(C(F)(F)F)cc1)NC(=O)CN)C(C)C)C(=O)N[C@H](C(N)=O)C(C)C,broth microdilution,"USA300 LAC, MRSA",,6.2 µM
CC1CCN(CCCN2/C(=C/c3cc(/C=C/c4c[nH]c5ccccc45)[n+](C)c4ccccc34)Sc3ccccc32)CC1,"microbial growth, broth dilution",ATCCBAA1720 MRSA,,16 µg/mL

# Some of these lines once more:
SMILES,test,system,setting,MIC
C=CCOC(=O)c1ccc(NC(=O)c2ccc(NC(=O)c3ccc(NC(=O)C(CC(N)=O)NC(=O)c4ccc(NC(=O)c5ccc([N+](=O)[O-])cc5)cc4)cc3)c(OC(C)C)c2OCC=C)cc1 (stereo not drawn),microbial growth,ATCC29213,,> 64 µg/mL
CCC1(C)CCN(Cc2cc(N(C)C)c3c(c2O)C(=O)C2=C(O)[C@]4(O)C(=O)C(C(N)=O)=C(O)[C@@H](N(C)C)[C@@H]4C[C@@H]2C3)CC1,microbial growth,MRSA,,1 µg/mL
